Assay results from different studies.
Every numbered part comes from another study and shows a few of its results, in no order. Changes are numbered by the printed parent chain.
Chain of UniProt P93022 (whole entry, looked up): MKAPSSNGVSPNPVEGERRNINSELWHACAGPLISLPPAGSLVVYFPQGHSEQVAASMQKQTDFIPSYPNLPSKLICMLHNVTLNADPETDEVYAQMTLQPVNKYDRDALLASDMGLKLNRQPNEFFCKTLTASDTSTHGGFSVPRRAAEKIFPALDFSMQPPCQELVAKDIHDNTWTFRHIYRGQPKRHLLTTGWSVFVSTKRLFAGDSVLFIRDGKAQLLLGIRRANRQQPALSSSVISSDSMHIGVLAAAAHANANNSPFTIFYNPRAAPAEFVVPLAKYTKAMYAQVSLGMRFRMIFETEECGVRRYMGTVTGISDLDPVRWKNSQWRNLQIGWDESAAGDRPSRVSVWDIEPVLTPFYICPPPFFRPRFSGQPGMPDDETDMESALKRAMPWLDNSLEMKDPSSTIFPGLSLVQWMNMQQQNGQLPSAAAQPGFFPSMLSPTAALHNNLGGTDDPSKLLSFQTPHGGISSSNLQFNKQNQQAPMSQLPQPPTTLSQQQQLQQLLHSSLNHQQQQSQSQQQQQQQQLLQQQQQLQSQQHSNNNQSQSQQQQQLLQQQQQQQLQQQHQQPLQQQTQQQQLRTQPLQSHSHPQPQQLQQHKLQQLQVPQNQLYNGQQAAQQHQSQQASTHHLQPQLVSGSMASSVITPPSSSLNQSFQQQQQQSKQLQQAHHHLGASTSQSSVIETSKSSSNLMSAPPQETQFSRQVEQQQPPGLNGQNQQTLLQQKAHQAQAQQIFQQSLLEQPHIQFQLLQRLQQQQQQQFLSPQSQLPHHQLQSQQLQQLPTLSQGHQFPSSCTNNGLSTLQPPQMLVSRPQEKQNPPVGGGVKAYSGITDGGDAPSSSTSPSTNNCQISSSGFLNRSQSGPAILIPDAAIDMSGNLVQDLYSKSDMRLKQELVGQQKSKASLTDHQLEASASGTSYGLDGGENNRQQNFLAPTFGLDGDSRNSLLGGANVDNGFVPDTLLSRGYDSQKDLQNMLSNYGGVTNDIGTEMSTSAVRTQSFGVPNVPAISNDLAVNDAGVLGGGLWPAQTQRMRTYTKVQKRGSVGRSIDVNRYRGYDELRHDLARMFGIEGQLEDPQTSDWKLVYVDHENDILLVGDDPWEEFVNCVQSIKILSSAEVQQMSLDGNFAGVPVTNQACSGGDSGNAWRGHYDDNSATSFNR

Study 1
Target: Centromere-binding protein 1, full length, N-terminal tag (CBF1, Saccharomyces cerevisiae, UniProt P17106, residues 1-351)
Chain of UniProt P17106 (whole entry, looked up): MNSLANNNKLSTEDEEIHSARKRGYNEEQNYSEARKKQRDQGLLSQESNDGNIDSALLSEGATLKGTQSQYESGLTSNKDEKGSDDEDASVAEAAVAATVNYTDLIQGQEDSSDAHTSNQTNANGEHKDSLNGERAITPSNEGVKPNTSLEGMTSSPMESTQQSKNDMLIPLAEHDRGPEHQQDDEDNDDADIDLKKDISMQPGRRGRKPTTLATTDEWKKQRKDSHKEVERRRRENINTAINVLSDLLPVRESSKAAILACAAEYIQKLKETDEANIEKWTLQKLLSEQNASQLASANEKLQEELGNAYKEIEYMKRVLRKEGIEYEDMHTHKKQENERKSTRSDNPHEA
Method: protein-binding microarray
Form: double-stranded DNA, one strand shown
Medium: in vitro
Tested at: 0.8 µM
Setting: whole 60-bp probe, no competitor
Direction: higher = stronger binding
Measurement: fluorescence intensity
All sequences stand within: … GTCTTGATTCGCTTGACGCTGCTG
TGTACGAAGCTATTTCACGTGATTATAGTAGTTAGG: 11500 a.u.
CTACGAATAGGTCTTCATGTGCGCCTGAATCAGTTC: 578 a.u.
GAACATGTCACTATGCACGTTGTGGGACAATTATAG: 629 a.u.
CCTAACTACTATATAAATGACCAATAGCTTCGTACA: 575 a.u.
GAAGTACCTTGACATGGCGTGTTACGTGTTTCATAG: 524 a.u.
CTACTTGGAATTTTTCACATGTTTGCAGTGAATTTC: 660 a.u.
CTAAAGCCTAAGTATCACGCTAATTGAAGTTTTTTC: 536 a.u.
GAAGTATAGATGAATCACGCTTGATTTGATGGATAG: 620 a.u.
CTATCAGTCAAAAGACGCGTGCAACAATACACGTTC: 651 a.u.
CTAGCATACATAATTCTGATGTTCTAGTTATACTTC: 556 a.u.
GAAATTAGCGTTATCATCATGATTATAATTACATAG: 542 a.u.
CTAATATAGCATTCACGCCTGGTACCACAGGAGTTC: 527 a.u.
CTACCTTTCTCAATTCATGTGGCTTCAAACATTTTC: 619 a.u.

Study 2
Target: NFE2L2, bZIP domain (human)
Method: DHFR protein complementation
Medium: yeast
Setting: single substitutions, most at no-binding floor
Baseline: wild-type JUN-FOS pair
Direction: higher = stronger binding
Measurement: binding fitness
Parent: JUN, bZIP domain (human); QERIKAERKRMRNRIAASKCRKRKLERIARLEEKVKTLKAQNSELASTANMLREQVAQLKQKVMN; partner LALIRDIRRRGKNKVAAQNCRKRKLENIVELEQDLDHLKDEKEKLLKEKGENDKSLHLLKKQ
K36V: -1.28 natural log
Q41H: -1.62 natural log
E54P: -1.46 natural log
E44H: -1.47 natural log
A49R: -1.45 natural log
A57Q: -1.52 natural log
A46Y: -1.56 natural log
L38R: -1.45 natural log
K39A: -1.51 natural log
L45I: -1.45 natural log
K39Q: -1.37 natural log

Study 3
Target: Interferon regulatory factor 5, full length, phosphomimetic (IRF5, Homo sapiens, UniProt Q13568-2, residues 1-514, K96S/S451D/S453D/S456D/S462D)
Method: protein-binding microarray
Form: double-stranded DNA, one strand shown
Medium: in vitro
Tested at: 250 nM
Setting: 60-bp whole probe
Together with: salmon DNA 0.4 mg/ml
Baseline: random background probes
Direction: higher = stronger binding
Measurement: log fluorescence
All sequences stand within: GCCTAGCAC … GTCTTGATTCGCTTGACGCTGCTG
GACGGACTGGACTTTCGGCACGTGCTA: 4.59 z-score
GACGAACTGAGGTTCGAGACGTGCTAG: -0.483 z-score
GAGGGTTTCCTTCTCCTGACGTGCTAG: 0.282 z-score
GACGAAATCAGTATCGAGACGTGCTAG: 3.57 z-score
GTGCTTCACAGAGGCGGCTGGTGCTAG: -0.497 z-score
TTAGAACTGAGTCACGATTAGTGCTAG: -0.361 z-score
TTAGGATTCGGTCTCGGTTAGTGCTAG: 1.4 z-score
TTAGCACTGAGTTTCGATTAGTGCTAG: 8.89 z-score
GACGGTTTCGACACTGCGGACGTGCTA: 4.49 z-score
TCATTTTTACCTGTGGTACTGTGCTAG: 0.611 z-score
TTAGGACAGGGGACTGGGTTAGTGCTA: -0.157 z-score
TTAGGACTGCTTCTCCTCTAGTGCTAG: -0.268 z-score
GAGGATATCAGTTTCGAGACGTGCTAG: 5.98 z-score
GACGGTTTCGACTATCGAGACGTGCTA: 7.35 z-score
TTAGGTTTCGACTCTCGGTTAGTGCTA: 6.86 z-score

Other studies, line by line
B1: ARF6 790-935 (Arabidopsis thaliana, UniProt Q9ZTX8); chain SENPQSNTFVKVYKSGSFGRSLDISKFSSYHELRSELARMFGLEGQLEDPVRSGWQLVFVDRENDVLLLGDDPWPEFVSSVWCIKILSPQEVQQMGKRGLELLNSAPSSNNVDKLPSNGNCDDFGNRSDPRNLGNGIASVGGSFNY
B1 (ARF6 790-935)
positive tests (ARF7 1030-1164 (Arabidopsis thaliana, UniProt P93022); two-hybrid; baseline: out of 2 tests, higher = firmer interaction): 1

Repeated from above (study 3):
TTAGGACAGGGGACTGGGTTAGTGCTA: -0.157 z-score
TTAGGACTGCTTCTCCTCTAGTGCTAG: -0.268 z-score
GAGGATATCAGTTTCGAGACGTGCTAG: 5.98 z-score
